Experimental data of several laboratories.
Each line is one published result; not all experiments were run side by side. ± marks the error that the study gave.

With `COc1ccc(C[C@H]2NC(=O)/C=C/C[C@@H]([C@H](C)[C@@H](OC(=O)CNC(=O)CCc3cn(CCOCCOCCOCCOCC(=O)NCc4ccc(CN5C(=O)[C@H]6CC(=O)N[C@@H](CCCNC(=N)N)C(=O)NCC(=O)N[C@@H](CC(=O)O)C(=O)NC[C@H]5C(=O)N6)cc4)nn3)[C@@H](Cl)c3ccccc3)OC(=O)[C@H](CC(C)C)OC(=O)C(C)(C)CNC2=O)cc1Cl` the IC50 was 0.203 ± 0.0277 µM (M21-L human melanoma (integrin αv-negative); cell viability, MTT; 2 h treatment plus 70 h).
`O=C1[O][Pt]2([NH][C@@H]3CCCC[C@H]3[NH]2)[O]C1=O` has an IC50 of 14.3 ± 2.1 µM (LoVo OXP cells (resistant to compound); cell viability, MTT; 72 h).
For `O=C(NC(=O)c1cc2c(F)cc(F)cc2[nH]1)c1cccc(F)c1`, the IC50 was 2.16 µM (KNS-42; cell growth or viability, resazurin; 72 h).
`C=C(C)[C@@H]1CCC(C)=C[C@H]1c1c(O)cc(CCCCC)cc1O` has an IC50 of 13.8 µM (SK-OV-3 (HER2-positive); cell viability, MTT; 72 h).
For `CCc1c(Cl)nc(N)nc1Cl`, the IC50 was 35.7 µM (mouse peritoneal cells; nitric oxide production, Griess; 24 h, added: LPS plus IFN-gamma).
For `O=C(NC12CC3CC(CC(C3)C1)C2)c1cc2ccccc2[nH]1`, the IC50 was 0.33 µM (KNS-42; cell growth or viability, resazurin; 72 h).
With `C#Cc1cccc(Nc2ncnc3cc(OCCOC)c(OCCOC)cc23)c1` the IC50 was 5 µM (SK-BR-3; cell death, MTT and trypan blue; 72 h).
`O=C(Cn1cnc2ccccc2c1=O)NCc1cccnc1` has an IC50 of 34.4 µM (MDA-MB-231; cell growth or viability, crystal violet; 48 h).
`N=C(N)NCCC[C@H](NC(=O)[C@H](Cc1c[nH]c2ccccc12)NC(=O)[C@H](CCC(N)=O)NC(=O)[C@H](Cc1c[nH]c2ccccc12)NC(=O)[C@H](CCCNC(=N)N)NC(=O)[C@H](Cc1c[nH]c2ccccc12)NC(=O)[C@H](CCC(N)=O)NC(=O)[C@H](Cc1c[nH]c2ccccc12)NC(=O)[C@H](CCCNC(=N)N)NC(=O)CCCCCN)C(N)=O` gave an IC50 of 40 µM (Caco-2; cell growth or viability, MTT).
The IC50 of `N#Cc1ccc(N2CCCC(CN3CCC(C4(C5CCCC5)NCCc5ccccc54)CC3)C2)cc1` (stereo not drawn) is reported as 3.96 µM (MV4-11; cell growth or viability, CCK-8; 96 h).
`N.N.[Cl][Pt][Cl]` gave an IC50 of 29.5 µM (MCF-10A; cell growth or viability, MTT).
The IC50 of `O=C1[O][Pt]2([NH][C@@H]3CCCC[C@H]3[NH]2)[O]C1=O` is reported as 24.4 ± 2.07 µM (VX2; MTT; 24 h).
The IC50 of `N.N.[Cl][Pt][Cl]` is reported as 41 ± 2.7 µM (HCT-116; cell viability, MTS; 72 h).
`Nc1nc2c(ncn2COCCO)c(=O)[nH]1` gave an IC50 of greater than 150 µM (MT4; cell growth or viability).
The IC50 of `N.N.[Cl][Pt][Cl]` is reported as 4.8 µM (NCM460; cell growth or viability, CCK-8).
`O=C1C[C@@H](O)CO1` has an IC50 of 70.7 µM (RAW264.7; NO release, inhibitor; LPS-stimulated).
For `CNC(=O)c1cc(Oc2ccc(NC(=O)Nc3ccc(Cl)c(C(F)(F)F)c3)cc2)ccn1`, the IC50 was 1.1 µM (MHCC97H; cell growth or viability, MTT; 48 h).
`Cc1c(OCC(F)(F)F)ccnc1C[S+]([O-])c1nc2ccccc2[nH]1` (stereo not drawn) gave an IC50 of 58.6 µM (PANC-1; colony formation).
`C#CC[C@H](NC(=O)[C@H](CO)NC(=O)CNC(=O)[C@H](CCCNC(=N)N)NC(=O)[C@@H](NC(=O)[C@H](CC(C)C)NC(=O)[C@@H]1CCCN1C(=O)[C@H](C)NC(=O)CNC(=O)[C@@H](NC(=O)[C@H](CO)NC(=O)[C@H](CCCNC(=N)N)NC(=O)CNC(=O)[C@H](CO)NC(=O)[C@H](CCCNC(=N)N)NC(=O)[C@H](CC(C)C)NC(=O)[C@H](CCCNC(=N)N)NC(=O)[C@H](CCCN)NC(=O)CNC(=O)[C@@H]1CCCN1C(=O)[C@@H]1CCCN1C(=O)[C@H](C)N)[C@@H](C)O)[C@@H](C)O)C(N)=O` gave an IC50 of greater than 200 µM (A2780cisR; cell growth or viability, MTT; 72 h, drug-resistant strain).
With `CC(=O)OC[C@H]1O[C@@H]([S-])[C@H](OC(C)=O)[C@@H](OC(C)=O)[C@@H]1OC(C)=O.CCP(CC)CC.[Au+]` the IC50 was 2.2 µM (NICD-transfected HEK-293T; Notch-dependent transcription, inhibitor, luciferase reporter; 24 h).
The IC50 of `COc1cc2c(c(OC)c1OC)-c1ccc(N)c(=O)cc1[C@@H](NC(C)=O)CC2` is reported as 0.031 ± 0.0013 µM (HT-1080 MT1-MMP positive; cell viability, MTT; 96 h exposure).
`C/C=C1\NC(=O)[C@@H](NC(=O)[C@H](CCC(N)=O)NC(=O)CCCCC)[C@@H](C)OC(=O)[C@H](C(C)C)NC(=O)[C@H](Cc2ccc(O)cc2)N(C)C(=O)[C@H](Cc2ccccc2)N2C(=O)[C@H](CC[C@H]2O)NC1=O` has an IC50 of 0.07 µM (BEAS-2B; cell growth or viability, MTT; 24 h).
With `CC(C)C[C@H](NC(=O)[C@H](CCCCN)NC(=O)[C@H](CS)NC(=O)[C@H](CC(C)C)NC(=O)[C@@H](NC(=O)[C@@H](NC(=O)[C@H](CO)NC(=O)[C@H](Cc1ccccc1)NC(=O)[C@@H]1CCCN1C(=O)[C@H](Cc1c[nH]c2ccccc12)NC(=O)[C@H](Cc1c[nH]cn1)NC(=O)[C@H](CC(=O)O)NC(=O)CNC(=O)[C@H](CCCNC(=N)N)NC(=O)[C@H](C)NC(=O)[C@@H](N)Cc1ccc(O)cc1)[C@@H](C)O)C(C)C)C(=O)N[C@H](C(=O)N[C@@H](CCCNC(=N)N)C(=O)O)C(C)C` the IC50 was 105 ± 35 µM (K562; cell adhesion; 15 min preincubation, added: vitronectin beads).
The IC50 of `CC1=C(/C=C/C(C)=C/C=C/C(C)=C/C(=O)Nc2ccc(O)cc2)C(C)(C)CCC1` is reported as 18.4 µM (HEK293 expressing MOR; cAMP overshoot, inhibitor, HTRF cAMP; added: morphine then naloxone).
`COc1ccc(C[C@H]2NC(=O)/C=C/C[C@@H]([C@H](C)[C@@H](OC(=O)CNC(=O)OCc3cc(NC(=O)CCCc4cn(CCC(=O)NCCCC[C@@H]5NC(=O)[C@@H](Cc6ccccc6)NC(=O)[C@H](CC(=O)O)NC(=O)CNC(=O)[C@H](CCCNC(=N)N)NC5=O)nn4)cc(O[C@@H]4O[C@H](C(=O)O)[C@@H](O)[C@H](O)[C@H]4O)c3)[C@@H](Cl)c3ccccc3)OC(=O)[C@H](CC(C)C)OC(=O)C(C)(C)CNC2=O)cc1Cl` gave an IC50 of 0.303 ± 0.0269 µM (M21; cytotoxicity, resazurin; 2 h plus 70 h incubation, without β-glucuronidase).
For `C[C@H]1[C@H](OC(=O)CCC(=O)Oc2ccc(CCO)cc2)O[C@@H]2O[C@@]3(C)CC[C@H]4[C@H](C)CC[C@@H]1[C@@]24OO3`, the IC50 was 24.5 ± 1.3 µM (SK-MEL3; cell viability, MTT; 24 h, added: deferoxamine 20 µM, 1 h before).
The IC50 of `COc1ccc(C[C@H]2NC(=O)/C=C/C[C@@H]([C@H](C)[C@@H](OC(=O)CNC(=O)OCc3ccc(NC(=O)[C@H](C)NC(=O)[C@@H](NC(=O)CCc4cn(CCOCCOCCOCCOCC(=O)NCc5ccc(CN6C(=O)[C@H]7CC(=O)N[C@@H](CCCNC(=N)N)C(=O)NCC(=O)N[C@@H](CC(=O)O)C(=O)NC[C@H]6C(=O)N7)cc5)nn4)C(C)C)cc3)[C@@H](Cl)c3ccccc3)OC(=O)[C@H](CC(C)C)OC(=O)C(C)(C)CNC2=O)cc1Cl` is reported as 0.0727 ± 0.0112 µM (M21 human melanoma (integrin αvβ3-positive); cell viability, MTT; 2 h treatment plus 70 h).
`O=C1C[C@@H](c2ccc(O)cc2)Oc2cc(O)ccc21` gave an IC50 of greater than 250 µM (MCF7 breast cancer; cell growth).
With `CCCCc1c(Cl)nc(N)nc1Cl` the IC50 was 36 µM (mouse peritoneal cells; nitric oxide production, refers to: nitrite; 24 h, added: LPS plus IFN-gamma).
The IC50 of `COc1cc(C(=O)c2oc3c(OC)cccc3c2N)cc(OC)c1OC` is reported as 6.39 µM (L1210; cell growth or viability).
`CC(C)c1ccc2c(c1)CC[C@H]1[C@](C)(CN)CCC[C@]21C` has an IC50 of 1.07 µM (UACC-903; cell growth or viability, MTS; 72 h).
`plicamycin` gave an IC50 of less than 0.07 µM (GIST882; cell viability; 72 h).
`O=P12CN3CN(CN(C3)C1)C2` gave an IC50 of greater than 500 µM (DU-145; cell growth or viability, MTT; 24 h).
`CC(C)[C@H](CO)Nc1nc(Nc2cc(N)cc(Cl)c2)c2ncn(C(C)C)c2n1` has an IC50 of greater than 10 µM (H3255 (EGFR L858R); cell viability, Alamar Blue; 120 h).
With `O=C(NNc1ccccc1)c1cc2c(F)cc(F)cc2[nH]1` the IC50 was 4.45 µM (KNS-42; cell growth or viability, resazurin; 72 h).
`CCN(CC)C(=S)[S][Sn]([c]1ccccc1)([c]1ccccc1)[c]1ccccc1` has an IC50 of 0.2 µM (WIL2-NS; cell growth or viability, MTT).
For `N.N.[Cl][Pt][Cl]`, the IC50 was 98.6 µM (Hep3B; cell growth or viability, trypan blue; 48 h, dark).
`CC(C)C[C@@H]1NC(=O)[C@@H]2CSSC[C@@H](C(=O)NCC(=O)O)NC(=O)[C@H](Cc3ccccc3)NC(=O)CNC(=O)[C@H](CC(N)=O)NC(=O)[C@@H]3CCCN3C(=O)CNC(=O)[C@@H]3CSSC[C@H](NC(=O)[C@H](CO)NC(=O)[C@H]([C@@H](C)O)NC(=O)[C@@H]4CCCN4C(=O)[C@H](C)NC(=O)[C@H](Cc4c[nH]c5ccccc45)NC(=O)[C@H](CC(=O)O)NC(=O)CNC(=O)[C@H](CCCNC(=N)N)NC(=O)CNC(=O)[C@H](CCC(N)=O)NC(=O)[C@@H]4CCCN4C(=O)[C@@H](NC(=O)CN)CSSC[C@H](NC(=O)CNC(=O)[C@H](C)NC1=O)C(=O)N[C@@H](C(C)C)C(=O)N3)C(=O)N[C@@H](CO)C(=O)N[C@@H](CCC(N)=O)C(=O)N[C@@H](CC(=O)O)C(=O)N[C@@H](CO)C(=O)N[C@@H](CC(=O)O)C(=O)N2` gave an IC50 of 0.01 ± 0.002 µM (U-87 MG; cell adhesion to vitronectin; 2 h, 37 °C).
The IC50 of `COc1cccc2c1C(=O)c1c(O)c3c(c(O)c1C2=O)C[C@@](O)(C(=O)CO)C[C@@H]3O[C@H]1C[C@H](N)[C@H](O)[C@H](C)O1` is reported as 0.4 µM (U-87 MG; cell growth or viability, SRB; 72 h).
The IC50 of `O=c1[nH]c2ccccc2n1C1CCN(Cc2ccc(-c3nc4cc5[nH]cnc5cc4nc3-c3ccccc3)cc2)CC1` is reported as 3.7 ± 0.9 µM (HeLa expressing Ub(G76V)-GFP; Ub(G76V)-GFP degradation, inhibitor, cycloheximide chase).
`O=C(Cn1cnc2ccccc2c1=O)Nc1nccs1` gave an IC50 of greater than 100 µM (MDA-MB-231; cell growth or viability, crystal violet; 48 h).
For `Nc1cccc2c(N)cccc12`, IC50 read “inactive” (HepG2; mitochondrial membrane potential, fluorescence plate reader; 1 h).

A few entries again:
`C=C(C)[C@@H]1CCC(C)=C[C@H]1c1c(O)cc(CCCCC)cc1O` has an IC50 of 13.8 µM (SK-OV-3 (HER2-positive); cell viability, MTT; 72 h).
The IC50 of `O=c1[nH]c2ccccc2n1C1CCN(Cc2ccc(-c3nc4cc5[nH]cnc5cc4nc3-c3ccccc3)cc2)CC1` is reported as 3.7 ± 0.9 µM (HeLa expressing Ub(G76V)-GFP; Ub(G76V)-GFP degradation, inhibitor, cycloheximide chase).
`O=C1C[C@@H](c2ccc(O)cc2)Oc2cc(O)ccc21` gave an IC50 of greater than 250 µM (MCF7 breast cancer; cell growth).
`CC(C)C[C@@H]1NC(=O)[C@@H]2CSSC[C@@H](C(=O)NCC(=O)O)NC(=O)[C@H](Cc3ccccc3)NC(=O)CNC(=O)[C@H](CC(N)=O)NC(=O)[C@@H]3CCCN3C(=O)CNC(=O)[C@@H]3CSSC[C@H](NC(=O)[C@H](CO)NC(=O)[C@H]([C@@H](C)O)NC(=O)[C@@H]4CCCN4C(=O)[C@H](C)NC(=O)[C@H](Cc4c[nH]c5ccccc45)NC(=O)[C@H](CC(=O)O)NC(=O)CNC(=O)[C@H](CCCNC(=N)N)NC(=O)CNC(=O)[C@H](CCC(N)=O)NC(=O)[C@@H]4CCCN4C(=O)[C@@H](NC(=O)CN)CSSC[C@H](NC(=O)CNC(=O)[C@H](C)NC1=O)C(=O)N[C@@H](C(C)C)C(=O)N3)C(=O)N[C@@H](CO)C(=O)N[C@@H](CCC(N)=O)C(=O)N[C@@H](CC(=O)O)C(=O)N[C@@H](CO)C(=O)N[C@@H](CC(=O)O)C(=O)N2` gave an IC50 of 0.01 ± 0.002 µM (U-87 MG; cell adhesion to vitronectin; 2 h, 37 °C).
`CC(C)c1ccc2c(c1)CC[C@H]1[C@](C)(CN)CCC[C@]21C` has an IC50 of 1.07 µM (UACC-903; cell growth or viability, MTS; 72 h).
`plicamycin` gave an IC50 of less than 0.07 µM (GIST882; cell viability; 72 h).
